Experimental data of several laboratories.
Each numbered part is a random draw from the data of one study; scales do not carry over between parts.

Sample 1
Target: Histone acetyltransferase KAT6A, winged helix 1, GST fusion (KAT6A, Homo sapiens, UniProt Q92794, residues 1-85)
Method: protein binding microarray
Form: double-stranded DNA, one strand shown
Sample: in vitro
Concentration: not given
Setting: 8-mer, flanks averaged, mean of 2 arrays, mostly near background
Reference: not given
Reading: higher = stronger binding
Target sequence (chain): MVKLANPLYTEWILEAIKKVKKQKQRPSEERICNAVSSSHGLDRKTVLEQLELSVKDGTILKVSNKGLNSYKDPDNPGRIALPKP
Strand	E-score
ACCTATTA	-0.06
TACGTCGA	-0.221
ACCACCGG	0.257
GCTGAGTA	-0.162
GGGCAACC	-0.00329
AATGTCGG	0.219
AGTTAACA	-0.108
CTGACGAA	-0.104
CTGGTGTA	-0.147
GAGGTATA	-0.0939
AATCGGAA	-0.0575
CCCCAGCA	-0.0277
CGAGAGAC	-0.0572
AGTCTACG	0.0224
CATGTCTC	-0.0501
AATTTGTA	-0.131
AGCTCCTG	-0.178
AGAGCGTC	0.0744
CGTCATCC	0.188
ACAGAGCG	0.0607
CTAACGCA	0.121
CGAGAGAG	-0.143
CAGAGAGA	-0.26
CGGAACGA	-0.0298
CCTGGAGC	-0.0586

Sample 2
Target: RING finger protein unkempt homolog, zinc fingers 1-6, GST-SBP tag (UNK, Homo sapiens, UniProt Q9C0B0, residues 30-357)
Method: RNA Bind-n-Seq
Form: RNA
Sample: in vitro
Concentration: not given
Setting: RNA with constant flanks, human-mouse chimeric sites, ends assumed
Reference: input RNA pool
Reading: higher = stronger binding
All sequences stand within: GGGAGUUCUACAGUCCGACGAUC … CAACAGAGGAUUGAGCAUCA
Construct (chain): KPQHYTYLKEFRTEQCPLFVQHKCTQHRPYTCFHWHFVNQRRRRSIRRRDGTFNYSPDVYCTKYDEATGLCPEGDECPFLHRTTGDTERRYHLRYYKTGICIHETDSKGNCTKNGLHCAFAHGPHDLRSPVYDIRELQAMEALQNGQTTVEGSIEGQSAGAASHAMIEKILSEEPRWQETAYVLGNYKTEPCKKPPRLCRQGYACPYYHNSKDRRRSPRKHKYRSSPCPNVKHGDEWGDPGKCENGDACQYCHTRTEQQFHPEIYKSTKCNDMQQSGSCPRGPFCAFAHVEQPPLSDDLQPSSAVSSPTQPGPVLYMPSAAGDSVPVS
Strand	bound/input enrichment
GAGCGUCUUGCCCGCACUGGGAUCAUCGUGACCACGAGUGAGGCUGUUCUGCUUCAGCUGGUGGCUGACAAAGACCACCCGAAGUUCAAGGAAAUUCAGAACCUAAUUAAGGCGAGUGCC	0.0862 ratio
GGGACUGAUUCAUCCCAAGGACAGGCCACCCCAUUUGGUGUUUGGAAUGAUGACAGUAUGGAAGGGCCUAGUCAAAAUGUUGAAGCUGAGUCAAUUCAGGAUGCCAUGAGUAUGGAAGAG	0.238 ratio
AAAGUGGACUAUGGCGAGUACAUGGAUAAAAACAAUGUGAGGCGGCAAGCAACAACAAUCAUAGCUGAUAAUAUUAUAUUUCUGAGUGACCAGACAAAAGAAAAGGCAUAGAACGGAUGA	6.35 ratio
CGCUGGCCCAAGCUGAUGGACUCUGAUGGCCUCCAUCUCUCAGGCACGUGUGCCUUCUCUUAGUUAUUGUUUUCGGGAUGUUAUGAAUCUCAGUACUGUGGUUUGAAAGCACCAGCUUUG	6.26 ratio
CAGGGCAUCAUCUCUCGAGCUGUUAAACACCUGUUCAAGAGUAUUGAAGAAAAAAAAACCUCAGCGAUUAAAAACGGGCUGCCCCCUCCUGAAUUCAAAGUGAAUGCCCAGUUCCUAGAG	0.574 ratio
CCCCAAUACCAUUUGCAGGUCUGGAACCUGCAUUCUUUUUUUAAAAAACAUGUAUACAUUUUAGGGCUGUAGAUUUAUUUUCCUGGUUUUGUUUUUCUUGCUUAUUCUUUGAGCACAGAA	1.57 ratio
UACAUUUUAUUGUUGAGUUUCAUUUUCAUAUAUUCUUGUAGUGUCUGCUUGCCUGUGACUUCUGGUAAAAUAAAAUAAGCCUUUGAAAAUAUUUUAGAUUUAACAUUAACAUUUUCUAAA	3.83 ratio
GCGAACAGGACUACAGAAAUGCUGGUAAUUUCAGUCAGUGAGUCGUGACUUCUGAUGUCCCAGCAAAUGUUGGCAUUGUUGACUGCUGAGAAGAUACUUCUGAGGACCCACGUCUAAGGU	0.116 ratio
CAACAGAGUCUAGGAUGGGUUCAUUACAUGAUUCAUGAGCCAGAACCGCAUAUUCUUCUCUUUAGACGACCUCUUCCAAAAGAUCAACAAAAAUGAAGUGCAGCUGGGAUCAUCUAAUCU	0.266 ratio
GCACUUGGGAAUGUAAUAAGUGCCUUGGGGGACAAGAGCAAGAGAGCCACCCAUGUCCCUUACAGAGACUCUAAGCUGACAAGACUCUUGCAGGAUUCCCUUGGGGGUAACAGCCAAACC	0.114 ratio
GUAGCUGGGACUACAGAAAUGCUGGUAAUUUCAGUCACUUGCUGAUGACUUCUGAUGUCCCAGCAAAUGUUGGCAUUGUUGACUGCUCUGUGAAGACUUCUGAGGACAUACAGCAGUGGU	0.0818 ratio

Sample 3
Target: Ras GTPase-activating protein-binding protein 1, full length (G3BP1, Homo sapiens, UniProt Q13283)
UniProt Q13283, sequence (whole entry, looked up): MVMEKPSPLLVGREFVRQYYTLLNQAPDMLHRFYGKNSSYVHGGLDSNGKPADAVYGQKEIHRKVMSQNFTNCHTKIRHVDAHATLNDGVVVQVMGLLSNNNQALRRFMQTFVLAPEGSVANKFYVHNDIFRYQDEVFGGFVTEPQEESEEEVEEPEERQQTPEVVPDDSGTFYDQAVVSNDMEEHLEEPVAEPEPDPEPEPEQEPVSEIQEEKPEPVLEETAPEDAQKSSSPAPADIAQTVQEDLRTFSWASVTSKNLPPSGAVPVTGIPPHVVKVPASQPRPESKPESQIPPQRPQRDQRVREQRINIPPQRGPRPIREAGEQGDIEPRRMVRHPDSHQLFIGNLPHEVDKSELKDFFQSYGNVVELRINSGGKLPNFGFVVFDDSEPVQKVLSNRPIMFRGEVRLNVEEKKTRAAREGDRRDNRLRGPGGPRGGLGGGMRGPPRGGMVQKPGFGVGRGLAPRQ
Method: RNA Bind-n-Seq
Form: RNA
Sample: in vitro
Concentration: 200 nM
Setting: whole 134-nt RNA, ends assumed
Together with: 150 mM KCl
Reference: input library
Reading: higher = stronger binding
All sequences stand within: GGGAGUUCUACAGUCCGACGAUC … UGGAAUUCUCGGGUGUCAAGG
Strand	log2 enrichment
ACCAUGCAGGUGGGCAUCUUUGGGAAGAAAGGCAAGGGGGGGAUAGGGAGGGGGGUAACACUUUGGGAACAGGUGGUCCCAGGUCGUUUC	1.62
CUAGAGAGCUGUAGUACACAUGGAUGAACGACGAGAAGAACAAAUUGUACAGUUACUGAAUUCUGUUCAAGCGAAGAAUGAUAAAGAGUC	0.402
UCCUGUGCUACACAUCGUAUGUACCGAAUCGGGUUUUUUGGGUUUUUUGGUUUUUUGGGAAAGUAUUAUGUUACGCCGUUCGGAUCUGCA	-0.69
UGGGAGGUGGAUUUUGUUUAUUUUUUUAGCUCAUUUCCAGGGGUGGGAAUUUUGUUUUAAUAUGUGUCAUGAAUAAAGUUGUUUUUGAAA	0.0479
UAACUUUAGAGGAGGAUCUGAUGGAUAUGGCAGUGGACGUGGAUUUGGGGAUGGUUAUAAUGGGUAUGGAGGAGGACCUGGAGGUGGCAA	0.239
ACCAUGCAGGUGGGCAUCUUUGGCAAGUGGGGCAAGGGGGGGAUAGGGAGGGGGGUAACACUUUGGGAACAGGUGGUCCCAGGUCGUUUC	0.992
AGUCCUGUGCUACACAUCGUAUGUACCGAAUCGGGGUGGGGAAAAAGGGGUUUGGGGAAAGUAUUAUGUUACGCCGUUCGGAUCUGCACU	0.309
CAAGCCAAGGAAAUGGUGUUAGAGUUAAUUCGUGAUCAAGGCGGUUUCAGAGAAGUUCGGAAUGAGUAUGGGUCAAGAAUAGGAGGAAAU	-1.34
CCUCAAGUCCUGUGCUACACAUCGUAUGUACCGAAUCGGUUUGGAGGAAAGGAAAGUAUUAUGUUACGCCGUUCGGAUCUGCACUUCCAG	-0.00383
GCAGGAAGUAAAAACAAAUGGAAAUGCUUCGGAUAGUGGCAGGGGUGUGGGUUGCUAAGGAAAGGGUGGGAUGGGAGUGGGUAAAGAGUU	0.982
GUCCUGUGCUACACAUCGUAUGUACCGAAUCAAAUUUAAAUUUUUUUAAAUUUUUAAAAAAGUAUUAUGUUACGCCGUUCGGAUCUGCAC	-1.53
CAAGUCCUGUGCUACACAUCGUAUGUACCGAAUCGGAGGAAAAAGGUUUUUUUGGAAAGUAUUAUGUUACGCCGUUCGGAUCUGCACUUC	-1.15
CCUGUGCUACACAUCGUAUGUACCGAAUCAAACCCCCCCAAACCCCCAAACCCCCCCAAAAAAGUAUUAUGUUACGCCGUUCGGAUCUGC	1.37
UUUCACUUCCAGCCAGCUGUGAAGAAGGUGAGCUUGCCUUCCAUCUUCCCCCCUAUCCGCCGCGUAUCUCCGUCGUCUGCAAGCGCGUGA	0.148

Sample 4
Target: Prothrombin, mature alpha-thrombin (F2, Homo sapiens, UniProt P00734)
Method: aptamer microarray, sandwich
Form: DNA with 2'F-ANA
Sample: in vitro
Concentration: 200 nM
Setting: whole 15-mer aptamer, many near background
Together with: Cy3 exosite-II aptamer, 400 nM
Reading: higher = stronger binding
Strand: GGTTGGTGTGGTTGG
Modification	mean fluorescence intensity [a.u.]
2'F-ANA at 2 6 7 8 10 11 12 14 15	87.8
2'F-ANA at 4 6 7 8 10 14	73.9
2'F-ANA at 1 4 8 9 10 11 13 14	46
2'F-ANA at 2 6 9 11 13	250
2'F-ANA at 1 2 5 6 7 8 9 12	117
2'F-ANA at 1 2 3 4 5 7 8 12 13 14	54.1
2'F-ANA at 2 3 10 13	468
2'F-ANA at 1 3 4 7 8 10 11 13	83.3
2'F-ANA at 1 7 8 9 15	219
2'F-ANA at 5 6 7 8 9 11 12 15	136
2'F-ANA at 4 5 6 7 8 10 11 15	46.6
2'F-ANA at 3 4 8 9 10 11 13 15	233
2'F-ANA at 1 2 5 6 7 9 10 11 12 13	47.7
2'F-ANA at 1 3 4 5 9 12 14 15	46.5
2'F-ANA at 2 3 4 8 9 11 12 13 15	560
2'F-ANA at 2 4 8 11 13	216
2'F-ANA at 1 2 3 7 8 10 14	54.1
2'F-ANA at 3 5 6 7 9 10 15	68.9
2'F-ANA at 4 6 7 11 12 13	329
2'F-ANA at 1 3 6 7 9 14	76.4
2'F-ANA at 2 4 6 7 8 9 10 12 13 14	101
2'F-ANA at 3 4 7 11 12 13 14 15	378
2'F-ANA at 2 3 4 5 6 7 8 10 11 14	53.5
2'F-ANA at 1 5 6 7 9 11 12	94.2
2'F-ANA at 8 10 12	191

For quick reference, copied from above (sample 1):
Strand	E-score
AATGTCGG	0.219
AGTTAACA	-0.108
CTGACGAA	-0.104
CTGGTGTA	-0.147
